Assay results pooled from the literature.
Every numbered part comes from another study and shows a few of its results, in no order. Changes are numbered by the printed parent chain.

Set 1
Target: Histone acetyltransferase KAT6A, both winged helices, GST fusion (KAT6A, Homo sapiens, UniProt Q92794, residues 1-181)
Technique: protein binding microarray
Molecule type: double-stranded DNA, one strand shown
Medium: in vitro
Concentration: not given
Notes: 8-mer, flanks averaged, mean of 2 arrays, mostly near background
Relative to: not given
Reading: higher = stronger binding
Residues (chain): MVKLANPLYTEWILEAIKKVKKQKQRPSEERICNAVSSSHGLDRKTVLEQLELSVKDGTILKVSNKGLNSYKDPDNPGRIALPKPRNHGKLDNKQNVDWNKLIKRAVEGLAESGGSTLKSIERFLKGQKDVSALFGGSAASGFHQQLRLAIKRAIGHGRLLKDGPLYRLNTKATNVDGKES
Strand | E-score
TCAAGTCA | -0.212
CACCCCCG | 0.0587
AGGACTCC | -0.206
ACGTAACG | 0.0414
CGAAGACC | -0.00501
AGGCATAC | -0.106
AATACTAG | -0.0929
ATATACCC | -0.0389
AAGGGCAA | -0.0603
TACGTCAA | -0.0406
ACACCGGC | 0.256
GCTGACTA | -0.0297
GCTCCGTA | 0.22
AATAGCGG | 0.244
AATGATAT | -0.007
ACGTTCTA | -0.116
AAGGAGTG | -0.121
CCCCCACA | -0.303
CTCTATTC | -0.00724
CAACCATC | -0.0463
CGACAATC | -0.0903
AAGAGTCA | -0.218

Set 2
Target: ABI1, truncated, D143A, DHFR fusion (Arabidopsis thaliana)
Technique: DHFR PCA, deep sequencing
Medium: yeast
Notes: methotrexate growth selection, single substitutions
With: (+)-ABA 0.0091 µM
Relative to: wild-type fitted maximum
Reading: higher = stronger binding
Parent: PYL1, truncated, DHFR fusion (Arabidopsis thaliana); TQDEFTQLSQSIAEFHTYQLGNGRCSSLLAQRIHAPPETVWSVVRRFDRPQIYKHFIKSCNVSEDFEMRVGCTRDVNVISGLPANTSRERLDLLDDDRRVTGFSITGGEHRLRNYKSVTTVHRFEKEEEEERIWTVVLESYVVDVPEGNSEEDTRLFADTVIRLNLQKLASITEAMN; partner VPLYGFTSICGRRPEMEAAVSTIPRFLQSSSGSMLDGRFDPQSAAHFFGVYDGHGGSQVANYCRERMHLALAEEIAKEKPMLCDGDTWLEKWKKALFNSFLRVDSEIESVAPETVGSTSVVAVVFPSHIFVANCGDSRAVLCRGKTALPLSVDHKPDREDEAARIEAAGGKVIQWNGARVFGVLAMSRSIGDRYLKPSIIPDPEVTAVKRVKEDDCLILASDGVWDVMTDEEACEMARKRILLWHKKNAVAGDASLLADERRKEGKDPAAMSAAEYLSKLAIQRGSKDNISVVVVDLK
Substitution | relative binding score [%]
G108D | -4.26
S87C | 37.7
C60F | -5.39
R32Q | 9.27
S80C | 27.9
Q10D | 49.8
E152A | 17.9
V70H | 0.177
S87T | 38.3
G21F | -1
A170I | -11.7
D75H | 26.8
V136K | -9.44
G102T | -1.47
I133P | 49
K116C | 3.95
N22S | 40
R46A | 20.7
C25F | 11.6

Set 3
Target: Interferon regulatory factor 7, full length, phosphomimetic (IRF7, Homo sapiens, UniProt Q92985, residues 1-503, S471D/S472D/S475D/S476D/S477D/S483D/S484D/S487D)
UniProt Q92985, sequence (whole entry, unmodified, looked up): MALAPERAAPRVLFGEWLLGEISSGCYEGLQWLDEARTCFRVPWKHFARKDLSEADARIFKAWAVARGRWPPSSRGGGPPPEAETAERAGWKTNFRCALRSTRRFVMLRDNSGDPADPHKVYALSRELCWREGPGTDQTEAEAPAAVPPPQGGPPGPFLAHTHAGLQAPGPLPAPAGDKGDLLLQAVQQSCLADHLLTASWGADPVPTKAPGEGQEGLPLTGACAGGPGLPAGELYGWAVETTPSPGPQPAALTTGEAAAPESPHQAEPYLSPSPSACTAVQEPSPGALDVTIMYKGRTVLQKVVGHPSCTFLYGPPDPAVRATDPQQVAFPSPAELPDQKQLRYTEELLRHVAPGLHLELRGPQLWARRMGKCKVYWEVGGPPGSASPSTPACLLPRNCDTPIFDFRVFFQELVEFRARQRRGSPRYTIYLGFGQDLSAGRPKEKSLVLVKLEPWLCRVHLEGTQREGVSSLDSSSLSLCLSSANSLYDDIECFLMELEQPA
Technique: protein-binding microarray
Molecule type: double-stranded DNA, one strand shown
Medium: in vitro
Concentration: 2200 nM top
Notes: 60-bp whole probe
With: salmon DNA 0.4 mg/ml
Relative to: random background probes
Reading: higher = stronger binding
Shared flanks, not repeated: GCCTAGCAC … GTCTTGATTCGCTTGACGCTGCTG
Strand | fitted relative affinity [z-score]
TTAGGACTGGGACTAGGTTAGTGCTAG | -0.783
TTAGGTTTCAACTTTCGGTTAGTGCTA | 7.64
TTAGGTTTCGGTCTCGGATAGTGCTAG | 6.2
TTAGATTCCAGTTCCGATTAGTGCTAG | 2.04
GACGGTTTCGGGTTTCGGGAGGTGCTA | 9.52
GACGGTTTCGGGACTGGGTACGTGCTA | 3.81
GACGATGTCGGGACTGGAGACGTGCTA | -0.524
GCCGGACTGGGGTTTCGGGACGTGCTA | 0.16
TCATTTCTCTTTCCTTCACTGTGCTAG | 4.71
TTAGGACTGCTTATCCCTTAGTGCTAG | 0.48
TACGGTATCGGGACTGGGGACGTGCTA | -0.296
GACGATTCCAGTTACGAGACGTGCTAG | 0.9
TCAGATTTTTTTTCCTAACTGTGCTAG | 0.908
TTAGGTAACGACTTTCGGTTAGTGCTA | 5.38
TCAGCTATACCACTCTTACTGTGCTAG | 0.779
GACGATATCAGTAGCGAGACGTGCTAG | -0.183
GAACCTTGGGCTCTAGGTTCGTGCTAG | 0.805
TCATACATCTATGTAGAACTGTGCTAG | 0.715
TAAGATATCAGTTTCGATTAGTGCTAG | 5.76
TTAGATTTCGGAACTGGATTAGTGCTA | 1.32
TCACCTTGGAAGTATGACACTGTGCTA | 0.641
TTAGGTATCGGACTGTGTTAGTGCTAG | 0.266
GACGATTTCAGTTCCAAGACGTGCTAG | 1.53
GAGGATATCAGACTGGAGACGTGCTAG | -0.288
ATTTGTCCCTATTTAAGAGAGTGCTAG | 1.48

Set 4
Target: Ras GTPase-activating protein-binding protein 1, C-terminal RGG region (G3BP1, Homo sapiens, UniProt Q13283)
UniProt Q13283, sequence (whole entry, looked up): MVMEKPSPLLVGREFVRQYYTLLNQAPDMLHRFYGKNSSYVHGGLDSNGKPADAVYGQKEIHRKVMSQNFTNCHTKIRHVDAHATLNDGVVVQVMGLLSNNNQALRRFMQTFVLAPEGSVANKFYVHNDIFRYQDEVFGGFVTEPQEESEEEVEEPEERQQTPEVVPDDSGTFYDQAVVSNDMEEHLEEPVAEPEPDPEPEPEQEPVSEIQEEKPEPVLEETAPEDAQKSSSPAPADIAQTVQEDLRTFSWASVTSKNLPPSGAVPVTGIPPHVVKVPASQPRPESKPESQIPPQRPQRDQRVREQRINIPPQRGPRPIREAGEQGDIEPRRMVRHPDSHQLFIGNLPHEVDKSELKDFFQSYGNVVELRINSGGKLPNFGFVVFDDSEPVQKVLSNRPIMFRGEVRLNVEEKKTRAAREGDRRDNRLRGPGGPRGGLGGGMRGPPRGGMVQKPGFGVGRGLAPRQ
Technique: RNA Bind-n-Seq
Molecule type: RNA
Medium: in vitro
Concentration: 1 µM
Notes: whole 134-nt RNA, ends assumed
With: 150 mM KCl
Relative to: input library
Reading: higher = stronger binding
Shared flanks, not repeated: GGGAGUUCUACAGUCCGACGAUC … UGGAAUUCUCGGGUGUCAAGG
Strand | log2 enrichment
UCCUCAAGUCCUGUGCUACACAUCGUAUGUACCGAAUCGGGCGGCGGGGCGGAAAGUAUUAUGUUACGCCGUUCGGAUCUGCACUUCCAG | -0.68
GUCCUGUGCUACACAUCGUAUGUACCGAAUCAAAUUUUUUUAAAUUUAAAUUUUUAAAAAAGUAUUAUGUUACGCCGUUCGGAUCUGCAC | -2.26
UCCUGUGCUACACAUCGUAUGUACCGAAUCAAACCCCCCCAAAUUUUUUUAAAUUUAAAAAAGUAUUAUGUUACGCCGUUCGGAUCUGCA | -0.413
GUCCUGUGCUACACAUCGUAUGUACCGAAUCGGUUUUUUGGUUUUUUGGGGUUUUUUGGAAAGUAUUAUGUUACGCCGUUCGGAUCUGCA | -1.4
CUCAAGUCCUGUGCUACACAUCGUAUGUACCGAAUCGGGGAAGGGAAGGAAGGGAAAGUAUUAUGUUACGCCGUUCGGAUCUGCACUUCC | -0.522
UCAAGUCCUGUGCUACACAUCGUAUGUACCGAAUCGGGGAAAGGAAAGGGAAAGGAAAGUAUUAUGUUACGCCGUUCGGAUCUGCACUUC | -1.71
GUCCUGUGCUACACAUCGUAUGUACCGAAUCGGUUUUUUUGGUUUUUGGUUUUUUUGGAAAGUAUUAUGUUACGCCGUUCGGAUCUGCAC | -1.57
UGGGAGGUGGAUUUUGUUUAUUUUUUUAGCUCAUGUCCAGGGGUGGGAAUUUUUUUUUAAUAUGUGUCAUGAAUAAAGUUGUUUUUGAAA | 2.69
UCAAGUCCUGUGCUACACAUCGUAUGUACCGAAUCGGGCCCGGGCCCGGCCCGGGAAAGUAUUAUGUUACGCCGUUCGGAUCUGCACUUC | -2
UCCUCAAGUCCUGUGCUACACAUCGUAUGUACCGAAUCGGGUGGUGGUGGGGAAAGUAUUAUGUUACGCCGUUCGGAUCUGCACUUCCAG | 0.225

Excerpt of the above (set 3):
Strand | fitted relative affinity [z-score]
TTAGATTCCAGTTCCGATTAGTGCTAG | 2.04
GACGGTTTCGGGTTTCGGGAGGTGCTA | 9.52
GACGGTTTCGGGACTGGGTACGTGCTA | 3.81
GACGATGTCGGGACTGGAGACGTGCTA | -0.524
GCCGGACTGGGGTTTCGGGACGTGCTA | 0.16
TCATTTCTCTTTCCTTCACTGTGCTAG | 4.71
TTAGGACTGCTTATCCCTTAGTGCTAG | 0.48
TACGGTATCGGGACTGGGGACGTGCTA | -0.296
GACGATTCCAGTTACGAGACGTGCTAG | 0.9
